Results gathered from unrelated publications.
Numbered parts are unrelated; each lists some results of a single study. Positions count from the first letter of the parent shown.

Series 1
Target: CCNB3, cyclin fold, Cln2 fusion (human)
Technique: yeast growth competition, sequencing
Medium: yeast
Notes: weak parent motif
Reference: not given
Reading: higher = stronger binding
Parent: CDAN1 docking peptide (human); RGARSQLFPPTEA; partner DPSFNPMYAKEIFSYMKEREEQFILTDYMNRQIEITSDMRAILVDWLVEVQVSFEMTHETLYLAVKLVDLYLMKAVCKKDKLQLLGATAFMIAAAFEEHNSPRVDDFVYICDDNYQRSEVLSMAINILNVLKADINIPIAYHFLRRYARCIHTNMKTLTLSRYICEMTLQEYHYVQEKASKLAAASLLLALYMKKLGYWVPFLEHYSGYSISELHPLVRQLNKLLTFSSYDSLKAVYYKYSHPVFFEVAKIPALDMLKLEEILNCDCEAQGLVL
Substitution | normalised enrichment score
R1A | 0.098
G2A | 0.23
P9A | 0.124
P10A | 0.264
Q6A | -0.157
F8A | 0.231

Series 2
Target: RING finger protein unkempt homolog, zinc fingers 1-6, GST-SBP tag (UNK, Homo sapiens, UniProt Q9C0B0, residues 30-357)
Technique: RNA Bind-n-Seq
Form: RNA
Medium: in vitro
Tested at: not given
Notes: RNA with constant flanks, human-mouse chimeric sites, ends assumed
Reference: input RNA pool
Reading: higher = stronger binding
Target sequence (chain): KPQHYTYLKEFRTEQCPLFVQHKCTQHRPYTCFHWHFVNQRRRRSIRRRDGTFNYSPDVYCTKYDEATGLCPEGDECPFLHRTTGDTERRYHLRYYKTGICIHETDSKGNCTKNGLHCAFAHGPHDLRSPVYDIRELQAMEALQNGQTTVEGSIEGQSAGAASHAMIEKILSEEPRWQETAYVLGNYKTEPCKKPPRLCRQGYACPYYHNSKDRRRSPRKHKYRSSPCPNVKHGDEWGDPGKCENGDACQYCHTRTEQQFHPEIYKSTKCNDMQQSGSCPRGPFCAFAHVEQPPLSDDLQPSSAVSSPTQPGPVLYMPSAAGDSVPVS
Sequence | bound/input enrichment [ratio]
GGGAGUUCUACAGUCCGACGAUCGGACCAUAAUCAUGGAGGACAUAAUGCACUUGCCCAGAGCGCGCGUCAACGCCAGCAUGUUACCACAGUAUAUCGACCGGCCCGUGUGCUUCGUGGGGAAGCUGGAAAAGAUUCAUCCCACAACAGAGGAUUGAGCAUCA | 0.116
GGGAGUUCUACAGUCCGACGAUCUAAGUUAUUUUGUACAGCUUUGUAAAUUCUUAACAUUUUUAUAUUGCCAUGUUUAUUUUGUUUGGGUGCUUUAUUAAAUUAAGUACAAAACCAAAUAAAUGAACAUCUUUUUCAGUAAUUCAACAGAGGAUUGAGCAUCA | 1.03
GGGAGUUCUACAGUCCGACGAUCUUCAAAGAAAAGGGCAGCUGUGUCAUUUCAUAAGUAACUCUGGGGGAGGGAAAUUCUGUUCUUUUGUUUAAUUUUCCCCCAAAUGAAGCCAAAGUGUUUUUUAAGGAACUGAGAAAAAAUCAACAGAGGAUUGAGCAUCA | 0.348
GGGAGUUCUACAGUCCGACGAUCCAGCUGCAGACAGAAAAGGAUGAAAAGGAGCUGUAUAAGGUACAUUUGAAGAAUACAGAAAUAGAAAAUACGAAGCUUGUGUCAGAGAUACAGACUUUAAAGAAUUUAGAUGGGAACAAACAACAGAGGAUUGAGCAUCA | 2.44
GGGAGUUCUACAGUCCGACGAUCAGGAGGAGGUUAAAGGGUGAAAAUGGGGUGGAAGACUGUGUCAUGGCUCUGGAGACACUGUUCAGUGUCCUGCUUUCUCUUUGCAGACUGAUGGCCCCUUACACGCCCUUUCUGACUGAGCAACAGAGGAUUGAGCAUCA | 0.0793
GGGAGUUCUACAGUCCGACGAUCGUGUCCUGCUUUCAACUUAAAUCACUGAGGCAUCUCUACUGUUCUGUGAGCAUCAGGAUUUUAGUGCUUGCCACCACCAUGAGAGUUCAGAAGCAGCCUUUCUGUGGAGGGUGGGAAUGACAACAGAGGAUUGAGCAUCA | 0.189
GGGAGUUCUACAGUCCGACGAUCGAUAGGAAAAGCUUGUUGGAGACCCGCUUGCACAUCACUGGUAGAGACCUGAGGUGUCAAAUAGCUGAAACUUUCGGAUUUCAAGAAAAUUACAUCAAGAUCGUAAUAAAUAAGAAACAGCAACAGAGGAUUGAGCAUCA | 0.504
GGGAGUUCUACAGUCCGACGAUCUACAUCACCAAUGUCCUACAAAAUCCUGACUUGGCUCUGAGAAUGGCUGUGCGGAACAACUUAGCCGGUGCUGAAGAACUCUUUGCCCGGAAAUUUAAUGCUCUCUUCGCCCAGGGAAACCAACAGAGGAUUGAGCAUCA | 0.451
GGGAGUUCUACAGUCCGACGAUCAGAAUCUGUGACUGGCUUUACUUAAUUGGUCAUUGAUAGCUUAACAAACAUGGAGAUAAGAUUAGAAGUUUUGACAUCAACAGGUAUUAAGCAGAAAAAACCAUGGCCACGUGUCUCCUGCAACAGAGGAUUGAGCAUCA | 0.409
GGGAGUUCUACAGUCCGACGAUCGAGUCGAGCAAACUUGAAACAAUUCGUUAUCUUGCAGCCUCAGUGUUCACUUGCUUGGCGAUAGCAUUGGGGUUUUAUAGGUUCUGGAAGGAGAACUUUAAUGCUCACUGCCGCUGCUGCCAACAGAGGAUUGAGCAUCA | 0.187
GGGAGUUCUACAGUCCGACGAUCGAAUCCUCCCGUGCAAAUCCCACAACAACCAAGCUCACAGCAGCAGCAUCUUAGUCACAGUAGGGUAGUUUUGGGGCUCUGUGGCCAGGGUUUUAUUCACAUGCAGGUUUGGAAAAUGUACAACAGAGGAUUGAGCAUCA | 2.31

Series 3
Target: ABI1, truncated, D143A, DHFR fusion (Arabidopsis thaliana)
Technique: DHFR PCA, deep sequencing
Medium: yeast
Notes: methotrexate growth selection, single substitutions
Together with: (+)-ABA 0.39 µM
Reference: wild-type fitted maximum
Reading: higher = stronger binding
Parent: PYL1, truncated, DHFR fusion (Arabidopsis thaliana); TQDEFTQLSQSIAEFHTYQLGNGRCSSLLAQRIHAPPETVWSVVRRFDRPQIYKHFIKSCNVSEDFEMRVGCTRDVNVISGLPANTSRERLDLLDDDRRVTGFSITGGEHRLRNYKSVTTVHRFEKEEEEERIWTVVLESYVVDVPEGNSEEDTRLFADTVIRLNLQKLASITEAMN
Substitution | relative binding score [%]
Q10N | 40.3
G102R | -0.292
T120I | -4.67
N149P | -2.8
T160P | -13.5
G21Y | 11.7
R123V | 4.68
P83K | 6.3
V43R | -8.77
Q51G | 5.13
V118H | 17.5
S63W | -4.78
Y141I | -9.36
F15Q | 3.42
R163W | -3.13
L166H | 12.3

Series 4
Target: OGT, full length, His-tagged (human)
Technique: phage display, sequencing
Medium: in vitro
Tested at: 1 µg OGT
Notes: single substitutions, 15-mer displayed peptide, unchanged parent 5.27
Reference: input library
Reading: higher = stronger binding
Parent: peptide; GDFPVMFMPKYSIIY
Substitution | fold enrichment [fold]
P4R | 7.12
M8S | 1.01
I14H | 1.4
F3Y | 4.95
G1F | 7.3
Y15H | 1.38
K10Y | 4.24
Y15G | 0.886
I14F | 1.84
G1N | 7.17
K10A | 1.46
V5K | 3.53
M6W | 4.1

Series 5
Target: RNA binding protein fox-1 homolog 2, RRM domain, GST-SBP tag (RBFOX2, Homo sapiens, UniProt O43251-10, residues 100-194)
Technique: RNA Bind-n-Seq
Form: RNA
Medium: in vitro
Tested at: 365 nM
Notes: natural RNA segment, single round, ends assumed
Reference: no-protein control
Reading: higher = stronger binding
Residues (chain): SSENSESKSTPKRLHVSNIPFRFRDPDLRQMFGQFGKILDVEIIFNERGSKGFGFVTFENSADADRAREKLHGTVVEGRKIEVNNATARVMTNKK
Sequence | RBNS enrichment (R)
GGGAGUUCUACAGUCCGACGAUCAGUAAAUCGUAAAGAGAAAGGAAUUUAAGGGGUUGGAGAGAUGACUCAGUGGCUAAGAGAAUUGGCUGUUCUUCCAGAGGACCCAGGUUUGAUUCCUAGCAGCACAUAGAUGGAAUUCUCGGGUGCCAA | 1.62
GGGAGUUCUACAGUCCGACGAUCUAUUGCUUCAGUAGAGCCACAAUAUGUAUCUUUGCUGUAAAGUGCAAGGAAAUUUUAAAUUCUGGGACACUGAGUUAGAUGGUAAAUACUGACUUACGAAAGUUGAAUUGUGGAAUUCUCGGGUGCCAA | 0.32
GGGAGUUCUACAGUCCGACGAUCGGUGACAAAAGCCACCCUGAGUGAUACUAGGCUGCCUGAACCUUUGGGUGGGAGUGGAAGUCCCUAGCACACAGCUUUGUGGAGACCUCCACUCUCACUCUUGGUGCAACUGGAAUUCUCGGGUGCCAA | 0.279
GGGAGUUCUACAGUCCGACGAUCUCUAUGGCUCUUCCUGAGAGCACACCUCUGGGUCUCAUCUGACAGAGUCUGUGGGCCAAGUGUCUGCCUAGAAGAGCUGUGUAUGUCUGGCUAGAAGCAGCCAGGCCAUGUGGAAUUCUCGGGUGCCAA | 0.357
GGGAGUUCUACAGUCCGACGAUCUAUAUUUUCAUUAUAAAAAACCAGUUUAAAAUUUUUUCUUAUUUUAAUUGUUUGAAAUUUUUCUAGAGCCAAAGAAGCUCUUUAAAGAAGUUGUUUCUUCCAAAGAACAAUGGAAUUCUCGGGUGCCAA | 1.24
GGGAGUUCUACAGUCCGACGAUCCUUCAGCUCAGCGGCAGCCCCGAAAUUGUUAAGGCCCGUACUUUUCCUGCCACUUGGUCUGACCCUGGGCCUCUUGUCUUUGGCUUGAACAUUAAGCUAUUUAACCCUCAUGGAAUUCUCGGGUGCCAA | 0.488
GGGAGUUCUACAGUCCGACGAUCAGGAUUAAUUAUCAGAAGACAGCUCAGGCCAAGUUUUGAUCGUUCCAUACAGUACCUUGUUUAUCUGCUUCUUAAAGAAUCAGCCGAGACACCAUAAAAGAAAUAGGCUUUGGAAUUCUCGGGUGCCAA | 0.277
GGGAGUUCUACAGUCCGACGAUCUCCCCCCUUGUGAAUGUUUUCUAACUUUGUCUUGGUAAUUGCAAUUUAACUAGGUGCGGUGGCUACUAAAGUUCGAAGGCACGAUAUGCGUGUCCAUCCUUACCAAAGGAUGGAAUUCUCGGGUGCCAA | 0.46
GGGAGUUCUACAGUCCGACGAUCUGACUAGACCUGUUUUUAAGGAAGCGCUGUCUGUUUUUAAGUAUUCUUAAAAACGUUUUGGAAAGCACUUCAGAUUUUACUGUUUACCAUGAGCCAUGGGUUUUUGUUUUUGGAAUUCUCGGGUGCCAA | 0.393
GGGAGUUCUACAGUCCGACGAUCAAUGUAAACUGCUCCCCCUCUCCCUUGCAGCCCUACGUGUUGAGGUUCUCUUGCAAUCUGUGUUAAGUACUGAAUGAAUGCCUUGAUUCAAUAAAAUUAAUUUUUUGACUUGGAAUUCUCGGGUGCCAA | 0.907
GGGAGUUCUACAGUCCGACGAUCAGAGCAUCGAGGAUAGUAGCUUAAGGUUGCUGAGCUGGAAGCUGUGGGGGAAGAAGUGGAAACUAUGUCCAGUGAACUUUUCCAGUAAAUGAAGCAAGCACUAAAGUACUUGGAAUUCUCGGGUGCCAA | 0.549
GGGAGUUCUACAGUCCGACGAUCGCAGAGGAGUGUCUGCAGGGAAACAGCUUCUCCUCUGCCCCGAUGGAUGCUUUAUUUGGAUGGCCUGGCAACAUCACAUUUUCUGCAUCACCCUGAGCCCCAUUUGCUUCUGGAAUUCUCGGGUGCCAA | 1.61

Series 6
Target: Histone acetyltransferase KAT6A, winged helix 1, GST fusion (KAT6A, Homo sapiens, UniProt Q92794, residues 1-85)
Technique: protein binding microarray
Form: double-stranded DNA, one strand shown
Medium: in vitro
Tested at: not given
Notes: 8-mer, flanks averaged, mean of 2 arrays, mostly near background
Reference: not given
Reading: higher = stronger binding
Target sequence (chain): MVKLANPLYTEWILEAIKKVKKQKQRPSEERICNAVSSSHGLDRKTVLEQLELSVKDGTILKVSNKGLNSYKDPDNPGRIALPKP
Sequence | E-score
AGTATGGA | -0.177
AAGTTTAA | -0.186
AGAGTATA | -0.143
GTCGGTGA | 0.0788
AAAAGTAG | -0.16
CTGATCGA | -0.159
CGGTGGAG | 0.161
AAATTCCA | -0.233
TGATGAAA | -0.241
AGACCTGA | -0.234
GACGACAA | -0.234
ACAGACAC | -0.14
CTAGCTTC | -0.0542
GCCCTACA | -0.0209
AACATCTA | -0.0886
GCGATATA | 0.15
CAACTTTA | -0.158
GAGGAGAA | -0.279
CCATGCAG | -0.153
GGTCGGCA | 0.163
GCCGATGA | 0.171
ACCTTGGC | -0.155
ACGACAAT | -0.222
AGTCATTC | -0.147
CCGTTCTC | 0.00446

Other studies, line by line
Substance | target | test | test system | conditions | how to read | endpoint | result
PhoQ, residues 284 288 289 292 302 303 NLGVHL | PhoP, residues 12 14 15 18 19 NHFRA (Escherichia coli, UniProt P23836) | Sort-seq, measured: YFP reporter | E. coli | PhoQ-PhoP variant library, together with: 10 µM Mg2+ | reference: high Mg2+ state, higher = stronger signaling | fold induction | 9.23
